# Experimental data from different studies.
# Compare with care: the assays were run in different laboratories. “And” joins repeats or separate records; there may be more than shown. ± marks the error that the study gave.
# CDK2 with cyclin A: Cyclin-dependent kinase 2, with cyclin A (CDK2, Homo sapiens, UniProt P24941)
Compound,target,test,test system,setting,how to read,measurement,value
COc1cccc(OC)c1NS(=O)(=O)c1ccc(N/C=C2\C(=O)Nc3ccc4ncsc4c32)cc1,CDK2 with cyclin A,bio-layer interferometry (Octet RED),,"298 K, CDK2-cyclin A complex, averaged",,Kd,333 nM
c1coc(-c2n[nH]cc2-c2ccnc3ccccc23)c1,orf19.3456 Candida albicans,"kinase binding, MIB/MS competition",Candida albicans lysate,1 µM,reference: DMSO,log2 fold change,-0.32
N#Cc1ccn2c(-c3ccncc3)c(-c3ccc(F)cc3)nc2c1,orf19.4518 kinase Candida albicans,MIB/MS competition binding,Candida albicans cell lysate,100 nM,"reference: DMSO, lower = stronger binding",log2 fold change,-0.0608
CCn1c(SCC(=O)Nc2ccccc2OC)nnc1-c1c[nH]c2ccccc12,CDK2 with cyclin A,,,,,Kd,> 100000 nM
CN(C)CCCOc1cc(NC(=O)c2cccc(C(=O)Nc3cc(OCCCN(C)C)c4ccccc4n3)n2)nc2ccccc12,Bcl2 G-quadruplex DNA,FRET melting,,"1 µM, pH 7.4, together with: 60 mM potassium",,ΔTm,18.2 ± 0.6 K
CSc1cc(Oc2ccnc3[nH]c(=O)cnc23)ccc1NC(=O)Nc1cc(C(C)(C)C)nn1-c1ccccc1,p90 ribosomal S6 kinases 1-3,reverse phase protein array,"patient-derived B cell clone line, human","1 µM, 4 h",reference: DMSO,phospho-Thr359/Ser363 RSK1-3 to total ratio,0.95
COc1cc(C(=O)NS(=O)(=O)c2ccccc2C)ccc1Cc1cn(C)c2ccc(NC(=O)OC3CCCC3)cc12,native VRAC,"ion current, inhibitor, whole-cell patch clamp",wild-type HCT cells,"1 µM, pH 7.4, extracellular pH",,inhibition,-12.5% and 12.2% and -18.2% and -2.43% and -1.79%
Oc1ccccc1-c1n[nH]cc1-c1ccnc2ccccc12,CKA2 (Candida albicans),"kinase binding, MIB/MS competition",Candida albicans lysate,10 µM,reference: DMSO,log2 fold change,0.39
O=C(Nc1cc(OCCN2CCCC2)c2ccccc2n1)c1cc(OCCN2CCCC2)cc(C(=O)Nc2cc(OCCN3CCCC3)c3ccccc3n2)n1,Bcl2 G-quadruplex DNA,FRET melting,,"1 µM, pH 7.4, together with: 60 mM potassium",,ΔTm,15.6 ± 1.1 K
N#Cc1ccc2c(-c3ccncc3)c(-c3ccc(F)cc3)nn2c1,orf19.4518 kinase Candida albicans,MIB/MS competition binding,Candida albicans cell lysate,10 µM,"reference: DMSO, lower = stronger binding",log2 fold change,0.0862

# Excerpt of the above:
Compound,target,test,test system,setting,how to read,measurement,value
N#Cc1ccc2c(-c3ccncc3)c(-c3ccc(F)cc3)nn2c1,orf19.4518 kinase Candida albicans,MIB/MS competition binding,Candida albicans cell lysate,10 µM,"reference: DMSO, lower = stronger binding",log2 fold change,0.0862
